Assay results gathered from unrelated publications.
Every numbered part comes from another study and shows a few of its results, in no order.
Sequence of UniProt P10721 (whole entry, unmodified, looked up): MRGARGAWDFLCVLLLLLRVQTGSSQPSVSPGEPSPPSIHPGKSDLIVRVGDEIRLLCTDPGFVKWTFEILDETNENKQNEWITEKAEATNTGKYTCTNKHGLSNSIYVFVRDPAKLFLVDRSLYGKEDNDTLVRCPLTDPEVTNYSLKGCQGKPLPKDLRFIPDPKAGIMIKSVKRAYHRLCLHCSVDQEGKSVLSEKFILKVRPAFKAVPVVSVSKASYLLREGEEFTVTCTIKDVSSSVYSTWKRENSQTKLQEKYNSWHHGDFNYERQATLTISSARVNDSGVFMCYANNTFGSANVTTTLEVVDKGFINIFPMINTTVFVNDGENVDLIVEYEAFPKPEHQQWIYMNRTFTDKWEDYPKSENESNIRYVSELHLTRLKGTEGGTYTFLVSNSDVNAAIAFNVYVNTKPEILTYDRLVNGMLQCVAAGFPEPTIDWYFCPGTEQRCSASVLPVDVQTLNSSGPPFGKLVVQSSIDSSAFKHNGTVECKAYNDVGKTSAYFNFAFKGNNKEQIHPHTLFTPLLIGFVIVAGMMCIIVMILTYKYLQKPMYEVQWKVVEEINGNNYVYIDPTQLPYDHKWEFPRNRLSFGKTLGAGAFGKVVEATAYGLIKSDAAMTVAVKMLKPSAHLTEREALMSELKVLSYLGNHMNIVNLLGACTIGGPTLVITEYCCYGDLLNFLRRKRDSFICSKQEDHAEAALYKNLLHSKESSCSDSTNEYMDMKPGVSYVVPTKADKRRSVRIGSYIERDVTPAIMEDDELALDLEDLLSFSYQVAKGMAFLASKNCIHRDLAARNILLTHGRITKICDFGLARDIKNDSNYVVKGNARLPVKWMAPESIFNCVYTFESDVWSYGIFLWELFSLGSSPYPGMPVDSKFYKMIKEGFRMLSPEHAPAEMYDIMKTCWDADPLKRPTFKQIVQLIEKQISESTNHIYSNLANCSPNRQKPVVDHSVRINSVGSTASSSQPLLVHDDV
Sequence of UniProt P42680 (whole entry, looked up): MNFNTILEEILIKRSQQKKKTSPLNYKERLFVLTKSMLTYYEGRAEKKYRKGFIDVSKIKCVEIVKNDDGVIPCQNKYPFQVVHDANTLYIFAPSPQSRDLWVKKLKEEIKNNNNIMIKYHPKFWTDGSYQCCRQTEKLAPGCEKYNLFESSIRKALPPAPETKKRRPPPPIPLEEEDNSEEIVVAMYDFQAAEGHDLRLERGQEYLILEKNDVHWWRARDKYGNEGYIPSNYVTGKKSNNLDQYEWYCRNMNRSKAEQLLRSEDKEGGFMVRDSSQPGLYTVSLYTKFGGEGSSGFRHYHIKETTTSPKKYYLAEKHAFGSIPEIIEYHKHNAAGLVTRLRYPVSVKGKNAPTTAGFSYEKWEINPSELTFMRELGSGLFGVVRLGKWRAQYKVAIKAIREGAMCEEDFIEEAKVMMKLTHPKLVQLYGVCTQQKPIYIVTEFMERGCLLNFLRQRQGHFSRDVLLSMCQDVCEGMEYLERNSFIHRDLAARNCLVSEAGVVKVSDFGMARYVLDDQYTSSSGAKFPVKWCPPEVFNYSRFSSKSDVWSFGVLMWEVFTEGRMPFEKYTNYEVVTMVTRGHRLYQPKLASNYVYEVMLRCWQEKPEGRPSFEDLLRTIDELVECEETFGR
Sequence of UniProt Q9H2K8 (whole entry, looked up): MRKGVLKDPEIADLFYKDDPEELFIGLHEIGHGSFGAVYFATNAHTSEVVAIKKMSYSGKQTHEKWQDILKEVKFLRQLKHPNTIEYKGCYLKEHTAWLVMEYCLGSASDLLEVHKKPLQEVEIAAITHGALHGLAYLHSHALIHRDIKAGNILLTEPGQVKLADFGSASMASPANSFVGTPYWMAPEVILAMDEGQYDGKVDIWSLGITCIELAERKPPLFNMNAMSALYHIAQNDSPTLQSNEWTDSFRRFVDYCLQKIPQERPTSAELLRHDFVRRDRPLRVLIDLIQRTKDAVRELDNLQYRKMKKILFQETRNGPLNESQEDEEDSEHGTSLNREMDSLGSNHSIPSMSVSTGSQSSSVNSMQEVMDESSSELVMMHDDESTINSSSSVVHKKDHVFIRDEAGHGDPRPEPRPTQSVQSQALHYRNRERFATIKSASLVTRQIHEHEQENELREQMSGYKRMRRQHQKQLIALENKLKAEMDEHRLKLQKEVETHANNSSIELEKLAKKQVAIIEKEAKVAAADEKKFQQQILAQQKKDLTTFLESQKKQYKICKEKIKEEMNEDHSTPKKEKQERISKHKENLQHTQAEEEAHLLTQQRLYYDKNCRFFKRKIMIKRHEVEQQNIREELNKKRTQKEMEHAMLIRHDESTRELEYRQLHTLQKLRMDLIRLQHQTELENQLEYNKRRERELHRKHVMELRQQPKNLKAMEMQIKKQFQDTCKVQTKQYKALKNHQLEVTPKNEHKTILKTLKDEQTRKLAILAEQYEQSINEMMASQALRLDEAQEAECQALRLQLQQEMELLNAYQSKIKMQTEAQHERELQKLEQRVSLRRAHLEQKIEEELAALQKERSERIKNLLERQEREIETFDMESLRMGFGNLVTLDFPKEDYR
Sequence of UniProt P42336 (whole entry, unmodified, looked up): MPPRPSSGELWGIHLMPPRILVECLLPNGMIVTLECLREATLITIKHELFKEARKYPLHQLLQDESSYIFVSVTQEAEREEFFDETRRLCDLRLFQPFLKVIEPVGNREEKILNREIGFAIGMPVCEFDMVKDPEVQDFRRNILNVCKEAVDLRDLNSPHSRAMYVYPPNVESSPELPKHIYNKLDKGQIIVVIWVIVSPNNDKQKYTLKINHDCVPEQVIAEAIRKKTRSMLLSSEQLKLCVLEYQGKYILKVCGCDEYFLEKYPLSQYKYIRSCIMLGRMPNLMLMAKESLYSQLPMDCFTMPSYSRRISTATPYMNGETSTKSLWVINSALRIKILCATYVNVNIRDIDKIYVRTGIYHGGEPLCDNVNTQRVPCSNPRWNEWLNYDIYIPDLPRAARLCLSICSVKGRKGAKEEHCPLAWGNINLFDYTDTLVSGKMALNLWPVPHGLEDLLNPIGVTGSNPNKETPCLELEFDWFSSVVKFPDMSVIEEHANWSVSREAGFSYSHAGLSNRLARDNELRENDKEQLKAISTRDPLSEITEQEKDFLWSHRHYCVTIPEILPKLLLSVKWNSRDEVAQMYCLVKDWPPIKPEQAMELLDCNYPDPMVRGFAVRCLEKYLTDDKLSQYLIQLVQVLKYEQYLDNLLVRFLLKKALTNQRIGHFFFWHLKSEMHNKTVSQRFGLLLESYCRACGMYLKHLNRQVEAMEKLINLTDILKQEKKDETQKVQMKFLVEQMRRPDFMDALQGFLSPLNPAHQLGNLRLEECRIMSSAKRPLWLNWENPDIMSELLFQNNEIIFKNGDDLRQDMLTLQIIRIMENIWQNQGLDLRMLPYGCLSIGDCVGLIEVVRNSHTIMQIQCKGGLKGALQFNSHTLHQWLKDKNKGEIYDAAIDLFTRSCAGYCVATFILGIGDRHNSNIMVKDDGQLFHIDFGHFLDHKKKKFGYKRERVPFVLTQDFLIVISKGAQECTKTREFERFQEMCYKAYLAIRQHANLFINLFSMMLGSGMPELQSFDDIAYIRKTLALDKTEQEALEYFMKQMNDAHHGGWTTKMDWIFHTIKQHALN
Sequence of UniProt O43293 (whole entry, looked up): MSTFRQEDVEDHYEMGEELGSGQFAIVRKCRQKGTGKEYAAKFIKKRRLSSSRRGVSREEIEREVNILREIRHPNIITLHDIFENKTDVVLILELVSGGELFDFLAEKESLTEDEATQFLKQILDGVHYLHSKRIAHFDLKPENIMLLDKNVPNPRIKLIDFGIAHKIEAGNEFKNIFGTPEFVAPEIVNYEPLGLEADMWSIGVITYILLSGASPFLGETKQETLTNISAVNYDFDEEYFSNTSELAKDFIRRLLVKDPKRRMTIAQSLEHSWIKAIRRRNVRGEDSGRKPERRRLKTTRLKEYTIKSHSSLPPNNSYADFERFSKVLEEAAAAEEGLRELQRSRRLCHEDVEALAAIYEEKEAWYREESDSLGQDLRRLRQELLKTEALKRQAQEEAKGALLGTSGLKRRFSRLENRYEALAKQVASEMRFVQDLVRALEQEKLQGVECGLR
Sequence of UniProt Q00535 (whole entry, looked up): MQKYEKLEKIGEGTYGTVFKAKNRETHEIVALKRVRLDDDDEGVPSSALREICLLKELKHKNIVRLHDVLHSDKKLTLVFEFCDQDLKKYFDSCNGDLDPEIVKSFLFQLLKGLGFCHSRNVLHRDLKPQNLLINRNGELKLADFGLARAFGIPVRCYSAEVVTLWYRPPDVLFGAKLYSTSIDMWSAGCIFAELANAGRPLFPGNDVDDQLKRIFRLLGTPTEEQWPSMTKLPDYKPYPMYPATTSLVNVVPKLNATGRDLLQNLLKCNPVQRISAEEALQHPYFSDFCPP
Sequence of UniProt Q9H093 (whole entry, looked up): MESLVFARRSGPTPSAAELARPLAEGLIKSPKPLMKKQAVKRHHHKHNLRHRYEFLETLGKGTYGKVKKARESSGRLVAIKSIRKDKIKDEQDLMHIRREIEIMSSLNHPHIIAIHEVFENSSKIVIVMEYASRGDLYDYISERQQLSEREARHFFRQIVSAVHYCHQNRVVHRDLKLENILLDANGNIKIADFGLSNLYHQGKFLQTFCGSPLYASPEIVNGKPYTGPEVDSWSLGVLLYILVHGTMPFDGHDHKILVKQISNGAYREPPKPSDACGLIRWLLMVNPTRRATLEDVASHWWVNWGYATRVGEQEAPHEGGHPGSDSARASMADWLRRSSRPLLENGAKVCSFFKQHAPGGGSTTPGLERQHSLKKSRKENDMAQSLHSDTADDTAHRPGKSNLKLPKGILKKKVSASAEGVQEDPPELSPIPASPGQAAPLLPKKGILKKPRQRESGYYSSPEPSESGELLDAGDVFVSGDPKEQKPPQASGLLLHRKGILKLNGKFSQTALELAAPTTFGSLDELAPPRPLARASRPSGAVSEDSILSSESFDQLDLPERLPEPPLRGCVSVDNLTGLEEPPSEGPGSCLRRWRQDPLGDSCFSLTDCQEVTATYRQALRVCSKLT

Sample 1 — technique: competition with immobilised ligand; tested at: 0.1 µM; endpoint: remaining binding
SMILES: Cc1cc(C)c(-n2ccn3nc(-c4cccnc4)cc23)cc1NC(=O)c1cc(C#N)cc(S(F)(F)(F)(F)F)c1
target = Mast/stem cell growth factor receptor Kit (KIT, Homo sapiens, UniProt P10721, T670I/V559D); test = cell-free assay; result = 67.9%
target = Tyrosine-protein kinase Tec (TEC, Homo sapiens, UniProt P42680); test = binding; result = 88.4%
target = Ribosomal protein S6 kinase alpha-6, C-terminal kinase domain (RPS6KA6, Homo sapiens, UniProt Q9UK32); test = cell-free assay; result = 74.9%
target = TGF-beta receptor type-2 (TGFBR2, Homo sapiens, UniProt P37173); test = cell-free assay; result = 78.6%
target = Cyclin-dependent kinase 5 (CDK5, Homo sapiens, UniProt Q00535); test = cell-free assay; result = 95.6%
target = Ephrin type-A receptor 1 (EPHA1, Homo sapiens, UniProt P21709); test = cell-free assay; result = 100%
target = Serine/threonine-protein kinase MRCK beta (CDC42BPB, Homo sapiens, UniProt Q9Y5S2); test = cell-free assay; result = 95.5%
target = Phosphatidylinositol 4,5-bisphosphate 3-kinase catalytic subunit alpha isoform (PIK3CA, Homo sapiens, UniProt P42336, I800L); test = cell-free assay; result = 92.8%
target = Tyrosine-protein kinase ABL1, non-phosphorylated (ABL1, Homo sapiens, UniProt P00519, F317I); test = binding; result = 65.8%
target = Homeodomain-interacting protein kinase 2 (HIPK2, Homo sapiens, UniProt Q9H2X6); test = cell-free assay; result = 86.2%
target = NUAK family SNF1-like kinase 2 (NUAK2, Homo sapiens, UniProt Q9H093); test = cell-free assay; result = 86.1%
target = Death-associated protein kinase 3 (DAPK3, Homo sapiens, UniProt O43293); test = cell-free assay; result = 78.1%
target = Serine/threonine-protein kinase NLK (NLK, Homo sapiens, UniProt Q9UBE8); test = cell-free assay; result = 100%
target = Mast/stem cell growth factor receptor Kit (KIT, Homo sapiens, UniProt P10721, V559D/V654A); test = cell-free assay; result = 89.4%
target = Serine/threonine-protein kinase TAO3 (TAOK3, Homo sapiens, UniProt Q9H2K8); test = cell-free assay; result = 47.1%

Sample 2 — technique: RNA Bind-n-Seq; form: RNA; sample: in vitro; tested at: not given; relative to: input RNA pool; reading: higher = stronger binding; endpoint: bound/input enrichment
Target: RING finger protein unkempt homolog, zinc fingers 1-6, GST-SBP tag (UNK, Homo sapiens, UniProt Q9C0B0, residues 30-357)
Setting: RNA with constant flanks, human-mouse chimeric sites, ends assumed
Shared flanks, not repeated: GGGAGUUCUACAGUCCGACGAUC … CAACAGAGGAUUGAGCAUCA
Residues (chain): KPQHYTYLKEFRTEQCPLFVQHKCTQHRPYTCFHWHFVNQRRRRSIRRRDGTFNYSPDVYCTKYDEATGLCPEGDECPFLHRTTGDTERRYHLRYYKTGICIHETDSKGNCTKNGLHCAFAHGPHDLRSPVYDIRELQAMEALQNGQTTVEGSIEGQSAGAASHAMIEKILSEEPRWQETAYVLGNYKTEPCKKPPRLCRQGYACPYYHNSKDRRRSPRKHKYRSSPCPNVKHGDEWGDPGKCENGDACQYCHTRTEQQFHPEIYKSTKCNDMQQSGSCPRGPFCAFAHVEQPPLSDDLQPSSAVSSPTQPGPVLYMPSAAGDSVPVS
Strand = AAAGCCCAAGUAUUUUGAAAAAACUCGAACAGAUUUGACAAGGGUAGCCAGCUUGGAGUCUAGCAACUUUGCCAAUGGUUUACCAAUCUGGGGGCUUUGUUUUUCUUUCUUCUUUCAAAU; result = 0.211 ratio
Strand = GGACAUCUGUCAAAUUGUAUUUCCCGUGUGAAACAAGUGAACACUCUGAUACACUUCAUCUGCUUGUACAUCUGUAUGAUAGAGAAAUGUAAAUAUGUUAAUCCAAGAUGAAUUCAACUU; result = 0.28 ratio
Strand = AACAGAUUUCUCAAGCACAUUCCAAGCGAGAAUGCUGAAAUAGUCAUUGUUGCCCAUGUGCCUUCUGACUGAGCUUUAAUGCUGUUCCAUGUUACAUCUUUCCUUCACUCCAGAAUUGUU; result = 0.169 ratio
Strand = AAAGAGUGGAUAGAGUGUGCACACGGGAUCGGUUAUACCCGGGCGAAAAAGGAGUGCAAGAUAGAGUUCGAUGACUUCGAAGAGUGCUUGCUUCGGUACAAAACGAUGAGACGUGCACAU; result = 0.294 ratio
Strand = AAGGUGAUGACUAUGUUUGUCCAACGACAGGUAUUUUCUGAGAACAAAGAUGAGAUUGCGUUAGUCCUCUAUGGCACAGAUGGCACUGAUAAUGCCCUUGCUGGCAAGGACCAGUAUCAG; result = 0.0993 ratio
Strand = UUCCCAACCUCCCGCCUCACCCCACCCCCGCUUUUUGGAAAGUUUUUGGCGUUUCUUUUCCUUCCCCAGUUAGAAUUAUUACAGUUUCCCCCGCAAGGGUCUAUCGAAGGGCUUGACGGA; result = 28.9 ratio
Strand = CCAAUUGUGGAGCAGUACUUGAAGACAAAGAAAAAUUCUAAUAAUUUAAUCAUCAAGUACAUUAGCUGCCGGCUGGUGACACUCAUCAUUAUACUGUUAGCGUGUAUCUACCUGGGCUAU; result = 0.647 ratio
Strand = CCCCAAUACCAUUUGCAGGUCUGGAACUGCACUCUCUUUAAAGUUUUAUAUGCAUAUAUUUUAGGGCUGUAGAUUUAUUUUCCUGGUUUUGUUUUUCAUUGCUGACUUUUGAGCACAGAA; result = 2.24 ratio

Sample 3 — organism: Plasmodium berghei; action: inhibitor; cell line: Huh-7; strain: liver stage; tested at: 10 µM; time: 24 h; relative to: untreated control; endpoint: infection rate
Compound = CC(C(=O)O)c1ccc(-c2ccccc2)c(F)c1 (stereo not drawn); result = 99.8%
Compound = COCCCC/C(=N\OCCN)c1ccc(C(F)(F)F)cc1; result = 109%
Compound = C[C@H](N)[C@H](O)c1cccc(O)c1; result = 86.9%
Compound = FC(F)(F)C(Cl)Br (stereo not drawn); result = 104%

Sample 4 — host: human; sample: microsomes or S9; tested at: 2 µM; time: 0.5 h; endpoint: remaining compound
SMILES = O=C(NC1(c2ccccc2F)CCCC1)c1cccc(N2CCCC2=O)c1; result = 40.4%
SMILES = CC(=O)c1cccc(NC(=O)CN(C)S(=O)(=O)c2c(C)cc(C)cc2C)c1; result = 10.9%
SMILES = Cc1ccc(N2CC(c3nc(-c4cc5c(C)nn(-c6ccccc6)c5s4)no3)CC2=O)cc1 (stereo not drawn); result = > 100%

A few entries again (sample 4):
SMILES = CC(=O)c1cccc(NC(=O)CN(C)S(=O)(=O)c2c(C)cc(C)cc2C)c1; result = 10.9%
SMILES = O=C(NC1(c2ccccc2F)CCCC1)c1cccc(N2CCCC2=O)c1; result = 40.4%
SMILES = Cc1ccc(N2CC(c3nc(-c4cc5c(C)nn(-c6ccccc6)c5s4)no3)CC2=O)cc1 (stereo not drawn); result = > 100%
